{"data": "Results gathered from unrelated publications", "note": "Numbered parts are unrelated; each lists some results of a single study. Several values in a cell are separate wells, animals, samples, runs or records.", "sequence of UniProt P42685 (whole entry, looked up)": "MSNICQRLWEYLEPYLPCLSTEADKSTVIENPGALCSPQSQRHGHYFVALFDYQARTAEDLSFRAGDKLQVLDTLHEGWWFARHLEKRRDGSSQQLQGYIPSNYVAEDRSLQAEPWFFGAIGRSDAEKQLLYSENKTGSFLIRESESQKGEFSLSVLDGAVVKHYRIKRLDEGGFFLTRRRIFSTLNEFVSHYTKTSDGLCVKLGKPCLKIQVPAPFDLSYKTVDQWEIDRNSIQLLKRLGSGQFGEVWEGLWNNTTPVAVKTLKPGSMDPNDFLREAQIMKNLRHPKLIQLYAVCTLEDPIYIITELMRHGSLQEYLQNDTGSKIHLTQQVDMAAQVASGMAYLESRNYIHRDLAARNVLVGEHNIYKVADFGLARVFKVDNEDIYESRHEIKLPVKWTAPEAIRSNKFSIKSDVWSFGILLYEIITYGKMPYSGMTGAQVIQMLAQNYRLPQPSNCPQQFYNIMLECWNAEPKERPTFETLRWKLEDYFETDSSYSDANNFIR", "sequence of UniProt O95819 (whole entry, looked up)": "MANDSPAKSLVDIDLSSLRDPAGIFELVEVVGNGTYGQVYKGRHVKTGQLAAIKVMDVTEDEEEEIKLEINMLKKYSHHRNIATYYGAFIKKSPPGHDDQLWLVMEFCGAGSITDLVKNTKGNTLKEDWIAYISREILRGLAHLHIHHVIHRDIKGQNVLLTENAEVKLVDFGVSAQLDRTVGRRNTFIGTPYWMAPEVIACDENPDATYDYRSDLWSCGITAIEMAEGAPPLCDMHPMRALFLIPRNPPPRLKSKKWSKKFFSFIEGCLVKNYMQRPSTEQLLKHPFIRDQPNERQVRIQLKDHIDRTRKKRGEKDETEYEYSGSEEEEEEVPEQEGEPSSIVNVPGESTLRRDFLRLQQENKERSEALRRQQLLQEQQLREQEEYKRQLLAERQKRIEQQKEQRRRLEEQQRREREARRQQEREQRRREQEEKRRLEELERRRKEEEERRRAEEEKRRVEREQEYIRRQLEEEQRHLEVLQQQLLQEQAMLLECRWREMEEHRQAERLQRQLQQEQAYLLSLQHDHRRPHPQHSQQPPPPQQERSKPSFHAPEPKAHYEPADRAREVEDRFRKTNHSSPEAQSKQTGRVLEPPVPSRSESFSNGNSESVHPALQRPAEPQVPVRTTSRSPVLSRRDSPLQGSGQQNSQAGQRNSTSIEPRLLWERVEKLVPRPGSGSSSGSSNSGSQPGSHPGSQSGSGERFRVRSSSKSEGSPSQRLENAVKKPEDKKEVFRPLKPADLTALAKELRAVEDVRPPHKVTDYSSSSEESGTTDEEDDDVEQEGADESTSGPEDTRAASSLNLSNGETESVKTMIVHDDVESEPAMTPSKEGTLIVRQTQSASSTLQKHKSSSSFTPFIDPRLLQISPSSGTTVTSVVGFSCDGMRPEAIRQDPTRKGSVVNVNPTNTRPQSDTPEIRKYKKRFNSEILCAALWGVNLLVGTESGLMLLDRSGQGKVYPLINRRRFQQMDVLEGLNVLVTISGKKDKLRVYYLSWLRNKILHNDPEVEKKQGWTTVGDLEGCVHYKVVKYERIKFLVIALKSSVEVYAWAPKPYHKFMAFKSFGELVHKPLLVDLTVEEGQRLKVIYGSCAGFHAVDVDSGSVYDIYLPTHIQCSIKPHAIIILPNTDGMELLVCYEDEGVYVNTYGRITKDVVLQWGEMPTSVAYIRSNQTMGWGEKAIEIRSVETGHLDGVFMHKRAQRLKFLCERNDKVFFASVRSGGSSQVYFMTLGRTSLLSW", "sequence of UniProt P51817 (whole entry, looked up)": "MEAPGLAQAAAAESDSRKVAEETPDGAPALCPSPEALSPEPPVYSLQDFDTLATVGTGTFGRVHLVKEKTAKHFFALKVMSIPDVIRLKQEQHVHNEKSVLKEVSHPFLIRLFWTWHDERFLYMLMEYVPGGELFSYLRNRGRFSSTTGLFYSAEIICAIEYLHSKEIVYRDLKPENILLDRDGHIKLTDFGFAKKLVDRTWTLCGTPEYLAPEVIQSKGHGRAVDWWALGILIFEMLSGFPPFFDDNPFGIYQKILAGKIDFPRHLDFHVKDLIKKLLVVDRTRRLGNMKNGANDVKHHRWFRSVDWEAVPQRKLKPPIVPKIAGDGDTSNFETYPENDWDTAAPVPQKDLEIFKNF", "sequence of UniProt P50613 (whole entry, looked up)": "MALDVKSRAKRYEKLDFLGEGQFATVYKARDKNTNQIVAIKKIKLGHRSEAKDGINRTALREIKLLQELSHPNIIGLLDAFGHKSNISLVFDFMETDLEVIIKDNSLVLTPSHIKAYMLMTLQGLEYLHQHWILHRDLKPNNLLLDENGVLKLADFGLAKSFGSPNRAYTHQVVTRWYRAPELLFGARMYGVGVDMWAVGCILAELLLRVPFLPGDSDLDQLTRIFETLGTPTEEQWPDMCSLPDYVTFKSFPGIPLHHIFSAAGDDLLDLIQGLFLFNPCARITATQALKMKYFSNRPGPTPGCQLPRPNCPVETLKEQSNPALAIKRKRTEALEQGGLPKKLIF", "sequence of UniProt Q8IU85 (whole entry, looked up)": "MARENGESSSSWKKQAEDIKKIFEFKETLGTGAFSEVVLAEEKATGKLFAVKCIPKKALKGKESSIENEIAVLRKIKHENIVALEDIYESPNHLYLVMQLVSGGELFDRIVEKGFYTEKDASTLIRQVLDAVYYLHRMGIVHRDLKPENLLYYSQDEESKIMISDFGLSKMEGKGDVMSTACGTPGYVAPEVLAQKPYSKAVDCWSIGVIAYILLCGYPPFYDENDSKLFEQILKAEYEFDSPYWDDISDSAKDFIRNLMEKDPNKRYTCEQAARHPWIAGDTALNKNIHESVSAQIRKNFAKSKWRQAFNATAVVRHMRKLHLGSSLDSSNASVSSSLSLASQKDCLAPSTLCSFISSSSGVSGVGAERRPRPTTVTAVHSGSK"}
{"data": "Series 1", "Structure (SMILES)": "CN1CCC[C@H]1COc1nc2c(c(N3CCN(C(=O)C(F)(F)F)[C@@H](CC#N)C3)n1)CCN(c1cccc3cccc(Cl)c13)C2", "observed": "binding", "mode": "competitor", "method": "NanoBRET", "cell line": "HEK293", "KRAS Q61L": "GTPase KRas (KRAS, Homo sapiens, UniProt P01116, Q61L)", "KRAS G13D": "GTPase KRas (KRAS, Homo sapiens, UniProt P01116, G13D)", "KRAS Q61H": "GTPase KRas (KRAS, Homo sapiens, UniProt P01116, Q61H)", "KRAS Q61R": "GTPase KRas (KRAS, Homo sapiens, UniProt P01116, Q61R)"}
{"target": "KRAS Q61L", "concentration": "5.08 nM", "normalized BRET": "98.3% and 101% and 99.7%"}
{"target": "KRAS G13D", "concentration": "3.7 µM", "normalized BRET": "42.1% and 72.7% and 72.3% and 48.5%"}
{"target": "KRAS Q61H", "concentration": "1.24 µM", "normalized BRET": "86.6% and 76.2% and 71% and 70.3%"}
{"target": "KRAS Q61R", "concentration": "45.7 nM", "normalized BRET": "103% and 98.6% and 89.6%"}
{"target": "KRAS Q61L", "concentration": "15.2 nM", "normalized BRET": "94.8% and 93.7% and 90.1%"}
{"target": "KRAS Q61H", "concentration": "3.7 µM", "normalized BRET": "72.3% and 56.6% and 46.7% and 43.9%"}
{"target": "KRAS G13D", "concentration": "1.24 µM", "normalized BRET": "88.2% and 69.5% and 72.8% and 91.9%"}
{"target": "KRAS Q61H", "concentration": "33.3 µM", "normalized BRET": "18.4% and 12.5% and 23.8% and 29.8%"}
{"target": "KRAS Q61R", "concentration": "33.3 µM", "normalized BRET": "120% and 113% and 117%"}
{"target": "KRAS Q61R", "concentration": "412 nM", "normalized BRET": "106% and 88% and 91.6%"}
{"target": "GTPase KRas (KRAS, Homo sapiens, UniProt P01116, G12D)", "concentration": "45.7 nM", "normalized BRET": "108% and 92% and 95.7%"}
{"data": "Series 2", "SMILES": "Cc1ccc(O)c(C)c1-c1cnc2[nH]c(-c3cnc(N)nc3)cc2c1C#N", "PKMYT1": "Membrane-associated tyrosine- and threonine-specific cdc2-inhibitory kinase (PKMYT1, Homo sapiens, UniProt Q99640)", "sequence of UniProt Q99640 (whole entry, looked up)": "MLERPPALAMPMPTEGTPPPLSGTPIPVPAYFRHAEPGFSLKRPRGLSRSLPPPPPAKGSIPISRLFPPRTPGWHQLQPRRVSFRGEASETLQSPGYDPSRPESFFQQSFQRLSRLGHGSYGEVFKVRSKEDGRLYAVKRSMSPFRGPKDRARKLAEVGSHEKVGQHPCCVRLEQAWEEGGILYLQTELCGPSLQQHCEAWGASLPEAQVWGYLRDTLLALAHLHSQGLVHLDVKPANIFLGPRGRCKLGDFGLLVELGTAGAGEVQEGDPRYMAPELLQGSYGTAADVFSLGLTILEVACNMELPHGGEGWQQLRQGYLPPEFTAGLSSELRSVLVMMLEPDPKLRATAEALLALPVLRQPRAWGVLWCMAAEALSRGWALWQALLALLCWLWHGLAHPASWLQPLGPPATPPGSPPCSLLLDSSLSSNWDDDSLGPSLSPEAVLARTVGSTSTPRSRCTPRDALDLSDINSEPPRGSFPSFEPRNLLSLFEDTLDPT"}
{"target or system": "HCC1806", "observed": "cell proliferation", "concentration": "41.15 nM", "inhibition": "17.4%"}
{"target or system": "HuCCT-1", "observed": "cell proliferation", "concentration": "1111.11 nM", "inhibition": "78.3%"}
{"target or system": "HCC1569", "observed": "cell proliferation", "concentration": "1111.11 nM", "inhibition": "86.6%"}
{"target or system": "NCI-H1648", "observed": "cell proliferation", "concentration": "28.71 nM", "inhibition": "-16.3%"}
{"target or system": "HCC1569", "method": "automated capillary immunoblot", "measured": "CDK1 phospho-Thr14", "concentration": "1000 nM", "inhibition": "82.5%"}
{"target or system": "PKMYT1", "concentration": "0.0001524 µM", "inhibition": "1.44% and -0.342%"}
{"target or system": "KLE", "observed": "cell proliferation", "concentration": "30000 nM", "inhibition": "79.6%"}
{"target or system": "NCI-H1648", "observed": "cell proliferation", "concentration": "9.57 nM", "inhibition": "-13.3%"}
{"target or system": "LN-229", "observed": "cell proliferation", "concentration": "13.72 nM", "inhibition": "3.34% and 11.5%"}
{"target or system": "PKMYT1", "observed": "cell-free assay", "method": "TR-FRET", "concentration": "1.37 nM", "inhibition": "23.5%"}
{"target or system": "MKN-1", "observed": "cell proliferation", "concentration": "10000 nM", "inhibition": "99.6%"}
{"target or system": "HCC1569", "method": "automated capillary immunoblot", "measured": "CDK1 phospho-Thr14", "concentration": "0.15 nM", "inhibition": "2.75%"}
{"data": "Series 3", "SMILES": "CNc1ncc2cc(-c3cc(OC)cc(OC)c3Cl)c(=O)n(CCc3ccc(NC(=O)C(C#N)=CC(C)(C)N4CCOCC4)cc3)c2n1"}
{"target": "TSSK1B (Homo sapiens, UniProt Q9BXA7)", "observed": "kinase activity", "concentration": "1 µM", "inhibition [%]": -2}
{"target": "GSK3A (Homo sapiens, UniProt P49840)", "observed": "kinase activity", "concentration": "1 µM", "inhibition [%]": -7}
{"target": "HASPIN (Homo sapiens, UniProt Q8TF76)", "observed": "kinase activity", "concentration": "0.1 µM", "inhibition [%]": -3}
{"target": "NDRG1", "concentration": "0.1 µM", "setting": "mean", "inhibition [%]": -4}
{"target": "ERBB2 (Homo sapiens, UniProt P04626)", "observed": "kinase activity", "concentration": "0.1 µM", "inhibition [%]": 7}
{"target": "PRKD2 (Homo sapiens, UniProt Q9BZL6)", "observed": "kinase activity", "concentration": "0.1 µM", "inhibition [%]": 2}
{"target": "DAPK3 (Homo sapiens, UniProt O43293)", "observed": "kinase activity", "concentration": "0.1 µM", "inhibition [%]": 1}
{"target": "EGFR (Homo sapiens, UniProt P00533)", "observed": "kinase activity", "concentration": "1 µM", "inhibition [%]": 1}
{"target": "NEK9 (Homo sapiens, UniProt Q8TD19)", "observed": "kinase activity", "concentration": "0.1 µM", "inhibition [%]": 4}
{"target": "HIPK3 (Homo sapiens, UniProt Q9H422)", "observed": "kinase activity", "concentration": "0.1 µM", "inhibition [%]": 3}
{"target": "GSK3B (Homo sapiens, UniProt P49841)", "observed": "kinase activity", "concentration": "1 µM", "inhibition [%]": -13}
{"target": "FRK (Homo sapiens, UniProt P42685)", "observed": "kinase activity", "concentration": "1 µM", "inhibition [%]": 6}
{"target": "MAP4K4 (Homo sapiens, UniProt O95819)", "observed": "kinase activity", "concentration": "0.1 µM", "inhibition [%]": 0}
{"target": "ABL1 (Homo sapiens, UniProt P00519)", "observed": "kinase activity", "concentration": "1 µM", "inhibition [%]": 3}
{"target": "CDK7 (Homo sapiens, UniProt P50613)", "observed": "kinase activity", "concentration": "0.1 µM", "inhibition [%]": -5}
{"target": "CHUK (Homo sapiens, UniProt O15111)", "observed": "kinase activity", "concentration": "1 µM", "inhibition [%]": 0}
{"target": "STK10 (Homo sapiens, UniProt O94804)", "observed": "kinase activity", "concentration": "0.1 µM", "inhibition [%]": -3}
{"target": "PIM3 (Homo sapiens, UniProt Q86V86)", "observed": "kinase activity", "concentration": "1 µM", "inhibition [%]": -2}
{"target": "PRKX (Homo sapiens, UniProt P51817)", "observed": "kinase activity", "concentration": "1 µM", "inhibition [%]": 1}
{"target": "CAMK1D (Homo sapiens, UniProt Q8IU85)", "observed": "kinase activity", "concentration": "1 µM", "inhibition [%]": 12}
{"data": "Series 4", "Compound": "C[C@@H]1CN(c2ccc(-c3cc(C(=O)NCCOCCOCCOCCOCCNC(=O)/C=C/c4[nH]cc(C(=O)N[C@@H](CC(N)=O)c5ccc(F)c(Cl)c5)c4-c4ccc(Cl)cc4F)ccc3F)cc2NC(=O)c2c[nH]c(=O)cc2C(F)(F)F)C[C@H](C)N1C", "observed": "thermal unfolding", "method": "differential scanning fluorimetry", "concentration": "5.5 µM", "reading": "higher = more unfolded", "DCAF1": "DDB1- and CUL4-associated factor 1 (DCAF1, Homo sapiens, UniProt Q9Y4B6)", "WDR5": "WD repeat-containing protein 5 (WDR5, Homo sapiens, UniProt P61964)", "sequence of UniProt Q9Y4B6 (whole entry, looked up)": "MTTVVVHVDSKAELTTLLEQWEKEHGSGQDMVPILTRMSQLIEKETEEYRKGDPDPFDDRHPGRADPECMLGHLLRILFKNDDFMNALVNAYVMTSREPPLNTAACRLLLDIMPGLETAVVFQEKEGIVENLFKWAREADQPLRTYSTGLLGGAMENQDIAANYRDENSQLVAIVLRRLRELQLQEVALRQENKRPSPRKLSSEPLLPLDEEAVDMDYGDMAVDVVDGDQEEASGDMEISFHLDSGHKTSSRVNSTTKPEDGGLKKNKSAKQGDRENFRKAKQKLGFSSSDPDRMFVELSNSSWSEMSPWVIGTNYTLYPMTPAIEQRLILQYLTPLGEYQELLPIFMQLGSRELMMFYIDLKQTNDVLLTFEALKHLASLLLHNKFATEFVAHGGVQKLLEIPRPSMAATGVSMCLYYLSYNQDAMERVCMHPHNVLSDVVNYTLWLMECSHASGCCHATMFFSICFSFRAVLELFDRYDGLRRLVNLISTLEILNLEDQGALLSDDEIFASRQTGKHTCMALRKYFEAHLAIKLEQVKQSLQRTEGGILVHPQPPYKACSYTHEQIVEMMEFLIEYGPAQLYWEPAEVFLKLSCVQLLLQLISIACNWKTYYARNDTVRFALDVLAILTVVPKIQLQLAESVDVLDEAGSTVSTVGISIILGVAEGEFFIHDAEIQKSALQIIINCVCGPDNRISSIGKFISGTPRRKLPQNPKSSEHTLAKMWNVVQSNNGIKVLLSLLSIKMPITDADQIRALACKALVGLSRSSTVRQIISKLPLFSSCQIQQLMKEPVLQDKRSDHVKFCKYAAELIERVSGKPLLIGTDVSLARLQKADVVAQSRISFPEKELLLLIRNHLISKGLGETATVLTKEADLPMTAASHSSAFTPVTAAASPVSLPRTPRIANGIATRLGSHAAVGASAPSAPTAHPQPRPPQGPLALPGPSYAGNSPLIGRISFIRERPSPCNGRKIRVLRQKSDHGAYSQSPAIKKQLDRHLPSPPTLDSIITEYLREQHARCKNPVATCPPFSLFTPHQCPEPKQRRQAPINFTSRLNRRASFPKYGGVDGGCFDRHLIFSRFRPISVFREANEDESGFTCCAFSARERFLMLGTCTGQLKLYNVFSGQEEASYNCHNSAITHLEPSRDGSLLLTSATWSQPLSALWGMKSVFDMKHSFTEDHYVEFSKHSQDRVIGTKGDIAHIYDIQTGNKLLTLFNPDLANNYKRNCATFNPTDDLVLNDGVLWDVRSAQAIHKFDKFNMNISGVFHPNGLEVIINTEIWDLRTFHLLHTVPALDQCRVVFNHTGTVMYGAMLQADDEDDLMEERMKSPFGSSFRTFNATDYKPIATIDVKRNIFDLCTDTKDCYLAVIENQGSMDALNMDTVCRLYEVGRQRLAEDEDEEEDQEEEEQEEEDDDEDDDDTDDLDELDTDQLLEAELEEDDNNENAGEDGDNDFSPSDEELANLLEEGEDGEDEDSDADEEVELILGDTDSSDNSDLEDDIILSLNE"}
{"target": "DCAF1", "temperature": "91.81 °C", "SYPRO Orange fluorescence": "33100 a.u."}
{"target": "DCAF1", "temperature": "51 °C", "SYPRO Orange fluorescence": "16000 a.u."}
{"target": "WDR5", "temperature": "74.01 °C", "SYPRO Orange fluorescence": "23500 a.u."}
{"target": "WDR5", "temperature": "30.8 °C", "SYPRO Orange fluorescence": "12800 a.u."}
{"target": "DCAF1", "temperature": "50 °C", "SYPRO Orange fluorescence": "15200 a.u."}
{"target": "DCAF1", "temperature": "28.2 °C", "SYPRO Orange fluorescence": "9050 a.u."}
{"target": "DCAF1", "temperature": "39.6 °C", "SYPRO Orange fluorescence": "11400 a.u."}
{"target": "DCAF1", "temperature": "30.8 °C", "SYPRO Orange fluorescence": "9610 a.u."}
{"target": "DCAF1", "temperature": "40.6 °C", "SYPRO Orange fluorescence": "11800 a.u."}
{"target": "DCAF1", "temperature": "67.01 °C", "SYPRO Orange fluorescence": "58900 a.u."}
{"target": "DCAF1", "temperature": "69.41 °C", "SYPRO Orange fluorescence": "56600 a.u."}
